Results gathered from unrelated publications.
Numbered parts are unrelated; each lists some results of a single study. Positions count from the first letter of the parent shown.

Set 1 — target: CCND1, cyclin fold, Cln2 fusion (human); method: yeast growth competition, sequencing; matrix: yeast; setting: strong parent motif; baseline: not given; direction: higher = stronger binding
Parent: PKN2 docking peptide (human); VSAVQKLDFSDTM
Variant | normalised enrichment score
VSAVQKLDFVDTM [S10V] | 1.44
VSAVQKLDFSDRM [T12R] | 1.7
VNAVQKLDFSDTM [S2N] | 1.76
VSAVQKLDRSDTM [F9R] | 0.37
VSAVQSLDFSDTM [K6S] | 1.42
VSAVQKLDFSDAM [T12A] | 1.98
VSAVQDLDFSDTM [K6D] | 0.759
VSAVQKLDFSCTM [D11C] | 2.03
NSAVQKLDFSDTM [V1N] | 1.94
VSAVQKLNFSDTM [D8N] | 0.976
VSAVQKNDFSDTM [L7N] | 0.0422
VSAVQKLDFSDEM [T12E] | 2.79
VSAVQFLDFSDTM [K6F] | 1.51
VSAVQKDDFSDTM [L7D] | 0.267
VIAVQKLDFSDTM [S2I] | 1.56
SSAVQKLDFSDTM [V1S] | 2.62
VSAVQKLDFSSTM [D11S] | 1.88
VSAVQKLDFSDMM [T12M] | 1.85
VKAVQKLDFSDTM [S2K] | 1.7
VSAVQPLDFSDTM [K6P] | 0.248
VSAVQKVDFSDTM [L7V] | 0.0637
VSAVQKLDFMDTM [S10M] | 1.75
VSAVQKLHFSDTM [D8H] | 0.199
VSAVRKLDFSDTM [Q5R] | 5.21
VSAVQKLDFSDTD [M13D] | 2.2

Set 2 — method: protein-binding microarray; form: double-stranded DNA, one strand shown; matrix: in vitro; tested at: 940 nM top; setting: 60-bp whole probe; with: salmon DNA 0.4 mg/ml; baseline: random background probes; direction: higher = stronger binding; all sequences stand within: GCCTAGCAC … GTCTTGATTCGCTTGACGCTGCTG
Target: Interferon regulatory factor 5, full length, phosphomimetic (IRF5, Homo sapiens, UniProt Q13568-2, residues 1-514, S451D/S453D/S456D/S462D)
Strand | fitted relative affinity
GACGGTTTCGACTATCTGGACGTGCTA | 7.78 z-score
TTAGATTTCGGGTATCGATTTGTGCTA | 3.7 z-score
TTAGGCTTCGGTTCCGGTTAGTGCTAG | 1.26 z-score
TCATTTTTTTTTTTTTAACTGTGCTAG | 1.45 z-score
TTAGGTATCGTTCTCCTTTAGTGCTAG | 5.81 z-score
TACGGACTGCTTATCCTGACGTGCTAG | -0.126 z-score
GTCGATTTCGGGTTTCGAGACGTGCTA | 4.29 z-score
TTCACTTTCTTTAACATATTGTGCTAG | 2.42 z-score
AGTAGCTGGGATTACAGGCAGTGCTAG | -0.514 z-score
TTCTTAATGCTTCTGGGCCAGTGCTAG | -0.212 z-score
GACGGTTTCGGGTTTCGGCACGTGCTA | 8.49 z-score
TTAGAACTGGGGTTTCGATTGGTGCTA | 5.28 z-score
ACAGGACAGTCCCATCTACCGTGCTAG | -0.342 z-score
GACGACCTGGGGTATCGAGACGTGCTA | 0.807 z-score
TTAGGTTTCTTTTTCCTTTAGTGCTAG | 3.66 z-score
GACGGTATCGGGGTTCGGGACGTGCTA | 3.15 z-score

Set 3 — method: RNA Bind-n-Seq; form: RNA; matrix: in vitro; tested at: 365 nM; baseline: no-protein control; direction: higher = stronger binding
Target: RNA binding protein fox-1 homolog 2, RRM domain, GST-SBP tag (RBFOX2, Homo sapiens, UniProt O43251-10, residues 100-194)
Setting: natural RNA segment, single round, ends assumed
All sequences stand within: GGGAGUUCUACAGUCCGACGAUC … UGGAAUUCUCGGGUGCCAA
Construct (chain): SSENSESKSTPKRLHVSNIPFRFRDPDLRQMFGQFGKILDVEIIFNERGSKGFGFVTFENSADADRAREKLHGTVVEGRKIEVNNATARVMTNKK
Strand | RBNS enrichment (R)
ACAGGCUUCCAGGUUAGGCACUGUGAAUAGGCUCAGCUCCUCUAGAGAGCUGAAGCCAUCUGGUUCUUAGAUUCCUCUCCCAGUCCUCUUUCCCAUUGUUCUGUUGCUCC | 0.44
GUGUGGGGGAUAAAACAGGACAGACGACAGGUCCACCCAAGACUGUCAAGGGAUGAGCAUCCCAAACCUGCUCCACAGAGGUAGCUGCGUCCUGAAAAAAAACAGAGCAG | 0.41
CGUCUUGGUGCUGUGAAGCAUUAGGCCGACAACCGAGUCCACACCUGGUGACCAGGGCAGUAGGCGUAAUUAAGCAACAAUCGAUCUUCCUUCAGGAGAGCUUGUCACUU | 0.211
ACAAAACAUGUUUAUAAAUGAACAGGAUGUAAUGUACAUAGAUGACAUUAAGAAAAUUUGUAUGAAAUAAUUUAGUCAUCAUGAAAUAUUUAGUUGUCAUAUAAAAACCC | 1.42
GUCUUUUUACAAGAUGAGCUUUUACUCUCUUCCAGGAAGUAGCUUUUUUUCUAGCUGAGAAUUAAUAAUGGUCUUUCUCUUUGGAAGUCAUAUCAAAGUAUAAUUGAUGG | 0.376
CUGGGCAGUGGUCUGUUCACCCUGAGUCCCACCCUUUGUUAAAUAACAAACUGCUGAUUCUUAAAAAGUGGUUCUGGCCCUCAUUAGCUCUUCCAGGUCUGCCUGCUGUA | 0.655
UCGUUCUCUCCCCAUGGGGCACUGACAGAGAAAUGAAAUAGUUUUAUCUGGAAAAUUCCAGAGCUAUUAUUUACUCCUUACCAAGGGAAGUUACUUCUUGUAAAAACUUU | 0.397
UUUCUUGUGAUUUUUCUAUUGUGUAAUUCUUGGUGGGCUCUGUAGUUUAAUAAUAAGAAAAAGGCCAUUUCAUUUUAAAUUGUGACCUAUAAUUCUUUGUCUUGGGUUGG | 1.12
CCCAUCCGUGUACGUAUGUGGCAUUUCCAGGUAUGACUGAGUGUGAGAGACAUGUCAGAGGCUCUUCAGUGAUUUCUUGCUAUUGACCGAUGCUUCACUGUGCCAAAAGA | 2.37
AUUUCCACUGAAGAGCCAAAAGGCAUUUAAUAUAUAUGUUCAUGAAACAUACCUUUUUCCUCUUUAAAAAAAAAGAUAUACUCAUUUUUUUAUUUUAUGUGUAUGACUGU | 0.554
CCAGCUUCCCUGACCGCUGCUGCUCGGGGAGGGCUGGGGCUGGCCGGGGGUCCUGUGGAGGAGUACAUGGAGGACUCCAGGUACAGCGCAGGAGUCACGGCUUUUGUUUU | 0.267
UUUAUAACUGAGAUGUACCUAAAUUAUGACCAUUUGGUUUAUGAAUAUUCUACUGUGACAUGAAAAGUUCCUGUAUUUUCAAAAACUUUUCUAUUAAAAUUGAUUUAACU | 0.588

Set 4 — method: universal PBM; form: double-stranded DNA, one strand shown; matrix: in vitro; tested at: 600 nM; direction: higher = stronger binding
Target: Sal-like protein 4, full length isoform A (SALL4, Homo sapiens, UniProt Q9UJQ4, residues 1-1053)
Chain of UniProt Q9UJQ4 (whole entry, looked up): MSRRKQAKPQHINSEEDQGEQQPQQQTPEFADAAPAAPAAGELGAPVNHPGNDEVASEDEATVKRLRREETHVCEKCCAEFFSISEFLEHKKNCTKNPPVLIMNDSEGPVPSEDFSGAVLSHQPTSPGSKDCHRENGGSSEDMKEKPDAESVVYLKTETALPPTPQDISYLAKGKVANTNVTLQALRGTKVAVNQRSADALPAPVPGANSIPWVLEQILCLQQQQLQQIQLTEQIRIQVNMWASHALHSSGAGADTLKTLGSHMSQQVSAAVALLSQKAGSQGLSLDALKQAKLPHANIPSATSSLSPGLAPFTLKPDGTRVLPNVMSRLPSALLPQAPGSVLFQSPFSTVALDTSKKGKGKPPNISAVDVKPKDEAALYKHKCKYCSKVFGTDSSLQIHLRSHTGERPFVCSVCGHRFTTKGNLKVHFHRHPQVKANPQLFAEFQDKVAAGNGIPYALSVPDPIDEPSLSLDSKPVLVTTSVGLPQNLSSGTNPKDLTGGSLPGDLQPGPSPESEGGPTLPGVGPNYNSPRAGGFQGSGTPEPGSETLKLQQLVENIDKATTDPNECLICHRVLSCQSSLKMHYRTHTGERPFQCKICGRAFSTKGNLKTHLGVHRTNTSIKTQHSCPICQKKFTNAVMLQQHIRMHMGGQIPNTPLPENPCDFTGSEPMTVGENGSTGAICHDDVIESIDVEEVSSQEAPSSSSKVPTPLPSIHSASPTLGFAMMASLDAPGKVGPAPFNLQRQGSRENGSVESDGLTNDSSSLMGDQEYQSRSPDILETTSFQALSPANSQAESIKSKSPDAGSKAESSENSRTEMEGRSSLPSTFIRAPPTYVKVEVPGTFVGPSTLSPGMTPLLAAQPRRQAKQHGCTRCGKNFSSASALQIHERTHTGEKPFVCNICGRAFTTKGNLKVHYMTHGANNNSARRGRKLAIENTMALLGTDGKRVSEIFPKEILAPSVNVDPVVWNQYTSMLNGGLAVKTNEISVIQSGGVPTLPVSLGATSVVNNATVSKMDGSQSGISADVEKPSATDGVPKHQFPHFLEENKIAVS
Setting: 8-mer, flanks averaged, mean of replicates
Strand | E-score
TACTCTGA | 0.0982
AGTAGGTC | -0.147
GTCGCCAC | -0.254
CGGACACA | -0.231
GCTGTGCA | -0.269
GTTAAGGA | 0.0892
CTTAACCC | -0.171
AGTGTCAG | -0.0744
AGTAGATG | 0.109
CATAGGGG | -0.125
ATGTTCAC | 0.0987
AAACAAAA | 0.253
AACGGAAA | 0.0614
CGTCGATC | -0.0318
ACCTCAGG | -0.371
CAGTAGGC | -0.132
CGGCCGTC | -0.354
CAAAGACG | -0.0572
CGGGTTAA | -0.122
AAGGCTGG | -0.216
CATAATCG | 0.237
GGGAATCA | -0.148
AAAGCTTA | 0.198
CGAGGATA | -0.034
ACTGAGTC | -0.0451

Set 5 — method: RNA Bind-n-Seq; form: RNA; matrix: in vitro; tested at: not given; baseline: input RNA pool; direction: higher = stronger binding
Target: RING finger protein unkempt homolog, zinc fingers 1-6, GST-SBP tag (UNK, Homo sapiens, UniProt Q9C0B0, residues 30-357)
Setting: RNA with constant flanks, human and mouse sites, ends assumed
All sequences stand within: GGGAGUUCUACAGUCCGACGAUC … CAACAGAGGAUUGAGCAUCA
Residues (chain): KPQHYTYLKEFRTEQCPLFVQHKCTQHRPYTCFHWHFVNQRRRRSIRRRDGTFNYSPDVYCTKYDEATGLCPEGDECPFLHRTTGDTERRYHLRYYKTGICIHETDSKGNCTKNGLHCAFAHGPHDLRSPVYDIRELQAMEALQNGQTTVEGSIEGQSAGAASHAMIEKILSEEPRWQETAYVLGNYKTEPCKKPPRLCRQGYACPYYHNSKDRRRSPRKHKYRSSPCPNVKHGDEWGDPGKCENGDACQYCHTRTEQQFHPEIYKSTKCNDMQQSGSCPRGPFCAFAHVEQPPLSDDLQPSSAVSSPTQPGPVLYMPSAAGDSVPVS
Strand | bound/input enrichment
UUUAUCGCAGCAGUUGAUCUAGAUGAGAUGCCAUUCACUUUUACUGAGCUACAGAAAAGCAUAGAAACCAGUGUCUAUAAAUUCUUUGACUUAUUAAAAGAAAUCGAUACCAGUACCAAG | 0.387 ratio
UGCUCAAGACAGCUAUUUGGAUGGCUCUUUUGCAAAGUACAUCCUGGUGCUAUUGUGUUUGCUAUAUUAGCAGCAAUGUCAAUACAAGGUUCAGCAAAUCUGCAAACCCAGUGGAAUAUU | 0.154 ratio
AACAUGCUAGCCACUGCCAAUAAAACAGAAAAGACUGAAUUUCUGGGUUUCUUCUACAAGCACUGUAUGCAUGUUCUCACUGCUCCUUUACUAGCAAAUACAACAGAAGACAAACCUAGU | 3.84 ratio
CAUGCGUACCGGAAACUACAUAGAGCUCAAUGAAGAAAAUGAUUUCCAUUAUAACGGUACCGAUGUGAGCUUUGAAGGUGGCACUCUUGGCUCUGCAUGGCUCUCUUCCAAUCCAGUUCC | 0.134 ratio
GGUUGCAGGUGUGUUGAACUUGACUGUUGGGAUGGAAAAGGUGAAGAUCAGGAACCGAUAAUAACUCACGGAAAAGCAAUGUGUACAGACAUCCUUUUUAAGGAUGUAAUCCAGGCCAUC | 0.196 ratio
AAAGAAAGCCCAGCUGUUGCAGAAACCUCAGCUACAAGUGAGGACCUCAGUUUGAAAUGCUGUUCUUCUGAUACCAAUGGCUCUCCUUUGGCCAAUAUAUCCAAAAGUGGGAAAGGAGAG | 0.1 ratio
GGAGGAAUGAAUUUAUCUAGCAAGCUGGCCCAACUCACUUGCCAUGGCAAUCUCUGCCACAGCUUCCAGUCCUUCAAUACUUCAUAUACAGACACAGGAUUAUGGGGACUCUAUAUGGUC | 0.304 ratio
CAAGGAAAGCCUAAUUUUGAAGAAUACUUUGAAAUUCUGACUCCAAAAAUCAACCAGACGUUUAGCGGGAUCAUGACUAUGUUGAAUAUGCAGUUUGUUGUACGAGUGAGGAGAUGGGAC | 0.459 ratio
AAGACGCUGACGCGGCACCACCUGUACUGCGAGCCCCCCGUGGAGCAGCCCCUGCCACGGCACCAUGCCCUCCGAGAGGCACCUGACUCUUUGCCUGAGUUCACGGUGCAGAUGGGGAAC | 0.0911 ratio
AAGGAGAACAGUUCUUGCGGCAGAUUUGAUAUAACAAUUGGACCAAAGCAGAAUAUGGGGAAAACUAUUGAAGGAAUUACAGUGACAGUUCACAUGCCAAAAGUUGUGCUGAACAUGAAC | 0.308 ratio
AUCCUGCCUGUGUCUGUAGAUGAGUAUCAAGUGGGGCAGCUGUAUUCUGUGGCUGAAGCCAGUAAAAAUGAAACUGGUGGUGGGGAAGGUGUGGAGGUCCUGGUGAAUGAGCCCUACGAG | 0.246 ratio

Excerpt of the above (set 2):
Strand | fitted relative affinity
TTAGATTTCGGGTATCGATTTGTGCTA | 3.7 z-score
TTAGGCTTCGGTTCCGGTTAGTGCTAG | 1.26 z-score
TCATTTTTTTTTTTTTAACTGTGCTAG | 1.45 z-score
TTAGGTATCGTTCTCCTTTAGTGCTAG | 5.81 z-score
TACGGACTGCTTATCCTGACGTGCTAG | -0.126 z-score
GTCGATTTCGGGTTTCGAGACGTGCTA | 4.29 z-score
TTCACTTTCTTTAACATATTGTGCTAG | 2.42 z-score
